Measurements pooled from the literature.
Numbers after ± are the reported error.

For N=C(N)NCCC[C@@H]1NC(=O)[C@H](CCCCNC(=O)CCOCCOCCOCCOCCNC(=O)CC[C@H](NC(=O)CCOCCOCCOCCOCCNC(=O)CC[C@H](NC(=O)CN2CCN(CC(=O)O)CCN(CC(=O)O)CCN(CC(=O)O)CC2)C(=O)NCCOCCOCCOCCOCCC(=O)N[C@@H](CCC(=O)NCCOCCOCCOCCOCCC(=O)NCCCC[C@@H]2NC(=O)[C@@H](Cc3ccccc3)NC(=O)[C@H](CC(=O)O)NC(=O)CNC(=O)[C@H](CCCNC(=N)N)NC2=O)C(=O)NCCOCCOCCOCCOCCC(=O)NCCCC[C@@H]2NC(=O)[C@@H](Cc3ccccc3)NC(=O)[C@H](CC(=O)O)NC(=O)CNC(=O)[C@H](CCCNC(=N)N)NC2=O)C(=O)NCCOCCOCCOCCOCCC(=O)NCCCC[C@@H]2NC(=O)[C@@H](Cc3ccccc3)NC(=O)[C@H](CC(=O)O)NC(=O)CNC(=O)[C@H](CCCNC(=N)N)NC2=O)NC(=O)[C@@H](Cc2ccccc2)NC(=O)[C@H](CC(=O)O)NC(=O)CNC1=O [indium-111 labelled], “tumour to tissue ratio” read 2.61 ± 0.33 (athymic nude mice, female, U-87 MG glioma xenograft, tumour and lungs; intravenous, 0.5 h; relative to: tumour over lungs).
CCCC[C@@H](NC(=O)[C@H](Cc1c[nH]c2ccccc12)NC(=O)[C@@H](N)CSC1CC(=O)N(CCCCCC(=O)NN=C(CO)[C@]2(O)Cc3c(O)c4c(c(O)c3[C@@H](O[C@H]3C[C@H](N)[C@H](O)[C@H](C)O3)C2)C(=O)c2c(OC)cccc2C4=O)C1=O)C(=O)N[C@@H](CCC(=O)O)C(=O)N[C@@H](C)C(=O)N[C@@H](C)C(=O)N[C@@H](Cc1ccc(O)cc1)C(=O)N[C@@H](CCC(N)=O)C(=O)N[C@H](CCCNC(=N)N)C(=O)N[C@@H](Cc1ccccc1)C(=O)N[C@@H](CC(C)C)C(N)=O (stereo partly drawn) has an intact compound of ~100% (DMEM/F12 without HEPES; at least 24 h, 37 °C).
The log P of CC1(C)C(/C=C/C=C/C=C2/N(CCCCCC(=O)NCCCC[C@@H]3NC(=O)[C@@H](Cc4ccc(O)cc4)NC(=O)[C@H](CC(=O)O)NC(=O)CNC(=O)[C@H](CCCNC(=N)N)NC3=O)c3ccccc3C2(C)C)=[N+](CCCCn2nnc3c2CCC2C(CC3)C2COC(=O)NCCNC(=O)CN(CCN(CC(=O)O)CC(=O)O)CCN(CC(=O)O)CC(=O)O)c2ccc(S(=O)(=O)[O-])cc21 (stereo partly drawn) is reported as -1.45 ± 0.03 (shake-flask; 1-octanol/PBS; pH 7.4, 99mTc-labelled tracer).
CN[C@](C)(C[18F])C(=O)O gave a tracer uptake of 1.8 %ID/g (MDA-MB-468 tumour model; host not given, liver; 2 h, tumour-bearing).
For N=C(N)NCCC[C@@H]1NC(=O)[C@H](CCCCNC(=O)CNC(=O)CNC(=O)CNC(=O)CC[C@H](NC(=O)CCOCCOCCOCCOCCNC(=O)CC[C@H](NC(=O)CN2CCN(CC(=O)O)CCN(CC(=O)O)CCN(CC(=O)O)CC2)C(=O)NCCOCCOCCOCCOCCC(=O)N[C@@H](CCC(=O)NCC(=O)NCC(=O)NCC(=O)NCCCC[C@@H]2NC(=O)[C@@H](Cc3ccccc3)NC(=O)[C@H](CC(=O)O)NC(=O)CNC(=O)[C@H](CCCNC(=N)N)NC2=O)C(=O)NCC(=O)NCC(=O)NCC(=O)NCCCC[C@@H]2NC(=O)[C@@H](Cc3ccccc3)NC(=O)[C@H](CC(=O)O)NC(=O)CNC(=O)[C@H](CCCNC(=N)N)NC2=O)C(=O)NCC(=O)NCC(=O)NCC(=O)NCCCC[C@@H]2NC(=O)[C@@H](Cc3ccccc3)NC(=O)[C@H](CC(=O)O)NC(=O)CNC(=O)[C@H](CCCNC(=N)N)NC2=O)NC(=O)[C@@H](Cc2ccccc2)NC(=O)[C@H](CC(=O)O)NC(=O)CNC1=O [indium-111 labelled], “tumour to tissue ratio” read 4.39 ± 1.13 (athymic nude mice, female, U-87 MG glioma xenograft, tumour and liver; intravenous, 1 h; relative to: tumour over liver).
The remaining intact of C[C@@H](O)[C@@H]1NC(=O)[C@H](CCCCN)NC(=O)[C@@H](Cc2c[nH]c3ccccc23)NC(=O)[C@H](Cc2ccc(O)cc2)NC(=O)[C@@H](NC(=O)[C@@H](Cc2ccccc2)NC(=O)c2ccc(C[C@H]3CN(CC(=O)O)CCN(CC(=O)O)CCN(CC(=O)O)CCN3CC(=O)O)cc2)CSSC[C@@H](C(=O)N[C@H](CO)[C@@H](C)O)NC1=O [gallium-67 labelled] is reported as 96.6 ± 1% (radio-TLC; mouse plasma; 24 h, 37 °C, 67Ga-labelled).
The hemolysis of C[C@H]1COc2c(N3CCN(C)CC3)c(F)cc3c(=O)c(C(=O)N[C@@H](CCCNC(=N)N)C(=O)N[C@@H](Cc4ccc(-c5ccccc5)cc4)C(=O)N[C@@H](CCCNC(=N)N)C(=O)N[C@@H](Cc4ccc(-c5ccccc5)cc4)C(=O)N[C@@H](CCCNC(=N)N)C(N)=O)cn1c23 is reported as 0% (human erythrocytes; 12.5 µM, 1 h, 37 °C; relative to: Triton X-100).
The uptake ratio of CCCC[C@H](NC(=O)CNC(=O)[C@H](CO)NC(=O)CNC(=O)c1ccc(NN)nc1)C(=O)N[C@H]1CC(=O)NCCCC[C@@H](C(N)=O)NC(=O)[C@H](Cc2c[nH]c3ccccc23)NC(=O)[C@H](CCCNC(=N)N)NC(=O)[C@@H](Cc2ccccc2)NC(=O)[C@H](Cc2c[nH]cn2)NC1=O [technetium-99m labelled] is reported as 147 (C57 mouse, B16/F1 melanoma; 2 h; relative to: tumour over muscle).
Under “blood radioactivity remaining”, CSCC[C@H](NC(=O)[C@H](CC(C)C)NC(=O)[C@H](Cc1c[nH]cn1)NC(=O)CNC(=O)[C@@H](NC(=O)[C@H](C)NC(=O)[C@H](Cc1c[nH]c2ccccc12)NC(=O)[C@H](CCC(N)=O)NC(=O)CNC(=O)[C@H](CO)NC(=O)CNC(=O)CCCCCCCNC(=O)CCC(=O)Nc1ccc(CNC23CNCCNCC(N)(CNCCNC2)CNCCNC3)cc1)C(C)C)C(N)=O [copper-64 labelled] is recorded as 3% (mice, PC-3 xenograft; dose not given, 24 h; relative to: level at 1 h).
CCCC[C@H](NC(=O)CNC(=O)CNC(=O)c1ccc(NN)nc1)C(=O)N[C@H]1CC(=O)NCCCC[C@@H](C(N)=O)NC(=O)[C@H](Cc2c[nH]c3ccccc23)NC(=O)[C@H](CCCNC(=N)N)NC(=O)[C@@H](Cc2ccccc2)NC(=O)[C@H](Cc2c[nH]cn2)NC1=O [technetium-99m labelled] has an uptake ratio of 1.32 (C57 mouse, B16/F1 melanoma; 2 h, together with: NDP-MSH blockade; relative to: tumour over skin).
CSCC[C@H](NC(=O)[C@H](CC(C)C)NC(=O)[C@H](Cc1c[nH]cn1)NC(=O)CNC(=O)[C@@H](NC(=O)[C@H](C)NC(=O)[C@H](Cc1c[nH]c2ccccc12)NC(=O)[C@H](CCC(N)=O)NC(=O)CCCCCNC(=O)CNC(=O)CNC(=O)CNC(=O)CSC(C)=O)C(C)C)C(N)=O [technetium-99m labelled] has a tissue uptake of 0.13 ± 0.03 %ID/g (nude mouse, PC-3 xenograft, blood; 90 min, together with: excess unlabelled conjugate).
CCCC[C@H](NC(=O)CCCCCCCNC(=O)c1ccc(NN)nc1)C(=O)N[C@H]1CC(=O)NCCCC[C@@H](C(N)=O)NC(=O)[C@H](Cc2c[nH]c3ccccc23)NC(=O)[C@H](CCCNC(=N)N)NC(=O)[C@@H](Cc2ccccc2)NC(=O)[C@H](Cc2c[nH]cn2)NC1=O [technetium-99m labelled] gave an uptake of 23.4 ± 3.37 %ID/g (C57 mouse, B16/F1 melanoma, tumor; intravenous, 0.5 h).
With CC[C@@]1(O)C(=O)OCc2c1cc1n(c2=O)Cc2cc3cc(OC(=O)CCCC(=O)NCC(=O)N[C@@H](Cc4ccccc4)C(=O)N[C@@H](Cc4ccccc4)C(=O)N[C@@H](Cc4ccc(O)cc4)C(=O)NCCSSCCNC(=O)CCC(=O)N[C@@H](CCC(=O)O)C(=O)N[C@@H](CCCNC(=N)N)C(=O)NCC(=O)N[C@@H](CC(=O)O)C(=O)O)ccc3nc2-1 the nanoparticle diameter was 50 to 100 nm (TEM and AFM; PBS; 100 µM, pH 7.4, together with: alkaline phosphatase 1 U/mL).
N=C(N)NCCC[C@@H]1NC(=O)[C@H](CCCCNC(=O)CCOCCOCCOCCOCCNC(=O)CN2CCN(CC(=O)O)CCN(CC(=O)O)CCN(CC(=O)O)CC2)NC(=O)[C@@H](Cc2ccccc2)NC(=O)[C@H](CC(=O)O)NC(=O)CNC1=O [indium-111 labelled]: “tumour to tissue ratio” 0.36 ± 0.13 (athymic nude mice, female, U-87 MG glioma xenograft, tumour and kidney; intravenous, 0.5 h; relative to: tumour over kidney).
With CC(C)C[C@@H]1NC(=O)[C@H](C(C)C)NC(=O)[C@H](CO)NC(=O)CNC(=O)CNC(=O)[C@H](CCCNC(=N)N)NC(=O)[C@@H]2CCCN2C(=O)[C@@H](NC(=O)CC[C@H](NC(=O)c2ccc(N(C)Cc3cnc4nc(N)nc(N)c4n3)cc2)C(=O)O)C(C)(C)SSC[C@@H](C(=O)O)NC(=O)CNC(=O)[C@H]([C@@H](C)O)NC(=O)[C@H](C(C)C)NC1=O the half-life was 32.1 days (phosphate buffer; 100 µM, pH 6.0, 70 °C).
N=C(N)NCCC[C@@H]1NC(=O)[C@H](CCCCNC(=O)CC[C@H](NC(=O)CCOCCOCCOCCOCCNC(=O)CN2CCN(CC(=O)O)CCN(CC(=O)O)CCN(CC(=O)O)CC2)C(=O)NCCCC[C@@H]2NC(=O)[C@@H](Cc3ccccc3)NC(=O)[C@H](CC(=O)O)NC(=O)CNC(=O)[C@H](CCCNC(=N)N)NC2=O)NC(=O)[C@@H](Cc2ccccc2)NC(=O)[C@H](CC(=O)O)NC(=O)CNC1=O [indium-111 labelled] gave a tissue uptake of 0.82 ± 0.27 %ID/g (female athymic nude mice, eyes; intravenous, 3 µCi, 1 h, U-87 MG glioma xenograft).
CC(C)C[C@H](NC(=O)[C@@H]1CCCN1C(=O)[C@H](CCCCN)NC(=O)[C@@H](N)CO)C(=O)N1CCC[C@H]1C(=O)N[C@@H](CCC(=O)O)C(=O)N[C@H](C(=O)N[C@H](C(=O)N[C@@H](CC(=O)O)C(=O)N[C@@H](CCC(=O)O)C(=O)N[C@@H](Cc1ccc(O)cc1)C(=O)N[C@@H](Cc1cn(CCOCCOCCOCCNC(=O)CCc2ccc(O)c(CN(CCN(CC(=O)O)Cc3cc(CCC(=O)NCCCC[C@H](NC(=O)N[C@@H](CCC(=O)O)C(=O)O)C(=O)O)ccc3O)CC(=O)O)c2)nn1)C(=O)O)[C@@H](C)O)C(C)C [gallium-68 labelled] — result for “standardized uptake value”: 35.8 g/g (NMRI nu/nu mice, LNCaP tumour, kidneys; 10 MBq, high molar activity).
CCCC[C@H](NC(=O)CNC(=O)CNC(=O)CNC(=O)c1ccc(NN)nc1)C(=O)N[C@H]1CC(=O)NCCCC[C@@H](C(N)=O)NC(=O)[C@H](Cc2c[nH]c3ccccc23)NC(=O)[C@H](CCCNC(=N)N)NC(=O)[C@@H](Cc2ccccc2)NC(=O)[C@H](Cc2c[nH]cn2)NC1=O [technetium-99m labelled] has an uptake of 0.16 ± 0.09 %ID/g (C57 mouse, B16/F1 melanoma, spleen; intravenous, 2 h).

Excerpt of the above:
With CC[C@@]1(O)C(=O)OCc2c1cc1n(c2=O)Cc2cc3cc(OC(=O)CCCC(=O)NCC(=O)N[C@@H](Cc4ccccc4)C(=O)N[C@@H](Cc4ccccc4)C(=O)N[C@@H](Cc4ccc(O)cc4)C(=O)NCCSSCCNC(=O)CCC(=O)N[C@@H](CCC(=O)O)C(=O)N[C@@H](CCCNC(=N)N)C(=O)NCC(=O)N[C@@H](CC(=O)O)C(=O)O)ccc3nc2-1 the nanoparticle diameter was 50 to 100 nm (TEM and AFM; PBS; 100 µM, pH 7.4, together with: alkaline phosphatase 1 U/mL).
